Results from different studies.
Protocols differ between the studies behind these lines. Several values in a cell are separate wells, animals, samples, runs or records. ± marks the error that the study gave. Values after ≈ are worked out from the molar mass of the structure shown.
UniProt P23467, sequence (whole entry, looked up): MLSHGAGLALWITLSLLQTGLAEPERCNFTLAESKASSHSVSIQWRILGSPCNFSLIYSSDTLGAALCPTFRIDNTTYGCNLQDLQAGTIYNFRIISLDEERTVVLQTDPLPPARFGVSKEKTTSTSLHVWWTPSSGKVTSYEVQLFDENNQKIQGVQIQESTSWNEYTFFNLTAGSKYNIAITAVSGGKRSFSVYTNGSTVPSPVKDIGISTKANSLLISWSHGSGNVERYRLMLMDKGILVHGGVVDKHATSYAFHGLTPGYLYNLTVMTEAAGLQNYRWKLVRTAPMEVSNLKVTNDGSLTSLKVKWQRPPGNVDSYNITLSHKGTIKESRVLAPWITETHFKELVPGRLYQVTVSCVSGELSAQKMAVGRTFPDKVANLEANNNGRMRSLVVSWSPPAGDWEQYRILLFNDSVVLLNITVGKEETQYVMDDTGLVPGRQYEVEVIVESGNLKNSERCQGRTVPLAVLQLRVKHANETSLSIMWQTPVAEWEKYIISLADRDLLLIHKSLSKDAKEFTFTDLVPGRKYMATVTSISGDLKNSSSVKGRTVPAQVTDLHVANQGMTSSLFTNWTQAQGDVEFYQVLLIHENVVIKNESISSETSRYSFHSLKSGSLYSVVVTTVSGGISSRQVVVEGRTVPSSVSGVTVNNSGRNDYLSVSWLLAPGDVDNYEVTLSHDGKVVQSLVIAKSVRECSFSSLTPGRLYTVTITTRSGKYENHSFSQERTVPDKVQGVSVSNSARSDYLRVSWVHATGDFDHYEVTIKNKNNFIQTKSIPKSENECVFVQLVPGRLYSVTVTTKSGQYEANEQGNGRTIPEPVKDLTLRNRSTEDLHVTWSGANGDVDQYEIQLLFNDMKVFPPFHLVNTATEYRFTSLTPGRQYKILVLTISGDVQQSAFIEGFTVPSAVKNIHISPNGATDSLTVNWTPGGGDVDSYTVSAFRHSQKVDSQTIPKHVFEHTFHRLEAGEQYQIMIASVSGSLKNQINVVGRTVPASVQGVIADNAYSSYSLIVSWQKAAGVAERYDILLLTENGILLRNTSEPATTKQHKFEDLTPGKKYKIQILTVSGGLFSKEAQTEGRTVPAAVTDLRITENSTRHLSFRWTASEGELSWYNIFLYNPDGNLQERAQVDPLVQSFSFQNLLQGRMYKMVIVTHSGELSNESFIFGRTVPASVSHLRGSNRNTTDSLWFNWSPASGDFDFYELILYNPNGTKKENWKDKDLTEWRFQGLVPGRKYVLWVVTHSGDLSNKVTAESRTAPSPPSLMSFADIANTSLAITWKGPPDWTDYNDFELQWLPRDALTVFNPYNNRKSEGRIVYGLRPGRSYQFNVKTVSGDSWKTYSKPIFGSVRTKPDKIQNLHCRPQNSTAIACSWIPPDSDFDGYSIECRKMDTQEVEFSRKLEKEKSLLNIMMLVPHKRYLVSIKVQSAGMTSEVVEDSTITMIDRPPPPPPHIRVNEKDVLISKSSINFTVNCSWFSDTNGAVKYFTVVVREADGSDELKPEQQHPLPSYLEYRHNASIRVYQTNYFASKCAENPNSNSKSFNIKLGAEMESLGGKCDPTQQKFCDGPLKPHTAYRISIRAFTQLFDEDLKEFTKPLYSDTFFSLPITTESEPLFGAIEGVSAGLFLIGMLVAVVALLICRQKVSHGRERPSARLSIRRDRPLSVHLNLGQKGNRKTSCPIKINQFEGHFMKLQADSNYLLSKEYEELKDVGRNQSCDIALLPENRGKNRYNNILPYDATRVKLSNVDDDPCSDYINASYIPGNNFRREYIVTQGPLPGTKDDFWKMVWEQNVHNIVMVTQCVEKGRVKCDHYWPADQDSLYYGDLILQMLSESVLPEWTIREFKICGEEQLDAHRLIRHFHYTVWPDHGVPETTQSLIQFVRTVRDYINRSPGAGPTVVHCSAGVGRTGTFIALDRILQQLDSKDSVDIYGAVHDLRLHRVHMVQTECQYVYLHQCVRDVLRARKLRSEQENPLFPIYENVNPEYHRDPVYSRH

SMILES	target or system	assay	system	conditions	scale	endpoint	value
CCCCNCCc1c[nH]c2cccc(O)c12.O=C(O)/C=C/C(=O)O			C57BL/6J mice	subcutaneous, 1 mg/kg, 30 min		distance travelled	2610 ± 104 cm
O=C(c1ccc(Cl)cc1)N1CCN2C(=O)N(OC(=O)N3CCOc4ccccc43)C(=O)C2C1 (stereo not shown)	Dipeptidyl peptidase 2 (Homo sapiens, UniProt Q9UHL4)	MS-based ABPP	SW-620 conditioned medium	10 µM, 1 h, 37 °C	relative to: compound over DMSO, lower = more inhibition	median protein ratio	0.99
CC[C@H](C)[C@H](NC(=O)[C@H](Cc1ccccc1)NC(=O)[C@H](CCC(=O)O)NC(=O)[C@H](CCCNC(=N)N)NC(=O)[C@H](C)NC(=O)[C@H](C)NC(=O)[C@H](CCC(N)=O)NC(=O)[C@H](CCC(=O)O)NC(=O)[C@H](CCC(=O)O)NC(=O)[C@H](CC(C)C)NC(=O)[C@H](Cc1ccc(O)cc1)NC(=O)[C@H](CO)NC(=O)[C@H](CO)NC(=O)[C@@H](NC(=O)[C@H](CC(=O)O)NC(=O)[C@H](CO)NC(=O)[C@@H](NC(=O)[C@H](Cc1ccccc1)NC(=O)[C@@H](NC(=O)CNC(=O)[C@H](CCC(=O)O)NC(=O)[C@H](C)NC(=O)CCc1c[nH]cn1)[C@@H](C)O)[C@@H](C)O)C(C)C)C(=O)N[C@@H](C)C(=O)N[C@@H](Cc1c[nH]c2ccccc12)C(=O)N[C@@H](CC(C)C)C(=O)N[C@H](C(=O)N[C@@H](CCCNC(=N)N)C(=O)NCC(=O)N[C@@H](CCCNC(=N)N)C(=O)N[C@@H](CCCCNC(=O)COCCOCCNC(=O)COCCOCCNC(=O)CC[C@H](NC(=O)CCCCCCCCCCCCCCCCC(=O)O)C(=O)O)C(=O)NCC(=O)NCC(=O)N[C@@H](CO)C(=O)N[C@@H](CCCCNc1c(NCCCCCN(O)C(=O)CCC(=O)NCCCCCN(O)C(=O)CCC(=O)NCCCCCN(O)C(C)=O)c(=O)c1=O)C(=O)O)C(C)C [zirconium-89 labelled]			rat, femur	intravenous, 3 nmol/kg, 168 h		tissue uptake	0.18 %ID/g
COc1c(CCC[P+](c2ccccc2)(c2ccccc2)c2ccccc2)cc2c(c1OC)OCO2.[I-]	U-251	SRB				GI50	-5.75 log M
C[C@@H](O)[C@@H](CO)NC(=O)[C@@H](CCCNC(=N)N)NC(=O)[C@@H]1CCCN1C(=O)[C@@H]1CSSC[C@H](NC(=O)[C@H](Cc2ccccc2)NC(=O)CN2CCN(CC(=O)O)CCN(CC(=O)O)CCN(CC(=O)O)CC2)C(=O)N[C@@H](Cc2ccc(O)cc2)C(=O)N[C@@H](Cc2ccccc2)C(=O)N[C@@H](CCC(N)=O)C(=O)N[C@@H](CC(N)=O)C(=O)N1 [gallium-68 labelled]			Wistar rat, healthy, Submandibular gland	intravenous, 8 MBq, 30 min		tissue uptake	0.47 %ID/g
CC[C@H](C)[C@@H]1NC(=O)[C@@H]2CCCN2C(=O)[C@H](CC(C)C)NC(=O)[C@H](CC(C)C)NC(=O)CNC(=O)[C@@H](NC(=O)[C@@H](NC(=O)[C@H](CC(=O)O)NC(=O)CNC(=O)[C@@H](NC(=O)[C@H](C)NC(=O)CNC(=O)[C@H](CCCCN)NC(=O)[C@H](CC(C)C)NC(=O)[C@H](CC(C)C)NC(=O)[C@H](CCCCN)NC(=O)CNC(=O)[C@@H](NC(=O)[C@@H](N)CC(C)C)C(C)C)C(C)C)C(C)C)CSSC[C@@H](C(=O)O)NC1=O		RNA-seq, measured: Sik1	mouse, traumatic brain injury model, frontal cortex and hippocampus	dose not given	relative to: TBI alone	log2 fold change	-1.52
O=C(O)/C=C/C(=O)O.Oc1cccc2[nH]cc(CCNCc3ccccc3)c12			C57BL/6J mice	subcutaneous, 0.03 mg/kg		head twitch count	6.3 ± 1.1
CN1CCN(S(=O)(=O)c2cc([N+](=O)[O-])ccc2N(CCOS(C)(=O)=O)CCOS(C)(=O)=O)CC1	sample F T-ALL PDX cells	cell viability	ex vivo			IC50	38.4 nM
CCNCCc1c[nH]c2cccc(O)c12.CCNCCc1c[nH]c2cccc(O)c12.O=C(O)CCC(=O)O			C57BL/6J mice	subcutaneous, 0.1 mg/kg, 30 min session		distance travelled	2510 ± 214 cm
COc1cc(CCC[P+](c2ccccc2)(c2ccccc2)c2ccccc2)c(OC)c2c1OCO2.[I-]	NCI-H23	SRB				TGI	-4.99 log M
COc1cc(Nc2ncc(F)c(Nc3ccc4c(n3)NC(=O)C(C)(C)O4)n2)cc(OC)c1OC	Receptor-type tyrosine-protein phosphatase beta (Homo sapiens, UniProt P23467)			PTPB		IC50	> 10000 nM
C[C@H]1O[C@@H](O[C@H]2CC[C@@]3(C)[C@@H](CC[C@]4(C)[C@@H]3C=C[C@]35OC[C@@]6(CCC(C)(C)C[C@H]63)[C@@H](O)C[C@]54C)[C@]2(C)CO)[C@H](O)[C@@H](O[C@@H]2O[C@H](CO)[C@@H](O)[C@H](O)[C@H]2O)[C@H]1O			mouse, ethanol-fed, hepatic SIRT1 knockdown, plasma	dose not given, 5 h, high dose		ALT activity	30.8 U/L and 17.8 U/L and 23 U/L and 27.3 U/L and 29.7 U/L and 25 U/L
CC[C@H](C)[C@H](NC(=O)[C@H](C)NC(=O)[C@H](CCCCN)NC(=O)[C@H](CC(C)C)NC(=O)[C@H](C)NC(=O)[C@@H](NC(=O)[C@H](Cc1c[nH]cn1)NC(=O)[C@H](CC(C)C)NC(=O)[C@@H](NC(=O)[C@@H](NC(=O)[C@H](CCCCN)NC(=O)[C@H](C)NC(=O)[C@H](C)NC(=O)[C@H](CO)NC(=O)[C@H](CCCCN)NC(=O)[C@H](Cc1ccccc1)NC(=O)[C@@H](NC(=O)[C@H](CCCCN)NC(=O)[C@H](CC(C)C)NC(=O)[C@H](Cc1ccccc1)NC(=O)[C@H](CO)NC(=O)[C@H](CCCCN)NC(=O)[C@H](Cc1c[nH]c2ccccc12)NC(=O)[C@H](CCCCN)NC(C)=O)[C@@H](C)O)[C@@H](C)O)C(C)C)[C@@H](C)O)C(=O)N[C@@H](CO)C(=O)N[C@@H](CO)C(N)=O	Enterococcus faecium			40 strains		MBC50	16 µg/mL (≈ 5.45 µM)

A few entries again:
SMILES	target or system	assay	system	conditions	scale	endpoint	value
CCCCNCCc1c[nH]c2cccc(O)c12.O=C(O)/C=C/C(=O)O			C57BL/6J mice	subcutaneous, 1 mg/kg, 30 min		distance travelled	2610 ± 104 cm
